Experimental data from different studies.
Protocols differ between the studies behind these lines. ± gives the spread as reported.
CYP2B6: Cytochrome P450 2B6 (CYP2B6, Homo sapiens, UniProt P20813)
Carboxypeptidase Y: Carboxypeptidase Y (Saccharomyces cerevisiae, UniProt P00729)
UniProt P00729, sequence (whole entry, looked up): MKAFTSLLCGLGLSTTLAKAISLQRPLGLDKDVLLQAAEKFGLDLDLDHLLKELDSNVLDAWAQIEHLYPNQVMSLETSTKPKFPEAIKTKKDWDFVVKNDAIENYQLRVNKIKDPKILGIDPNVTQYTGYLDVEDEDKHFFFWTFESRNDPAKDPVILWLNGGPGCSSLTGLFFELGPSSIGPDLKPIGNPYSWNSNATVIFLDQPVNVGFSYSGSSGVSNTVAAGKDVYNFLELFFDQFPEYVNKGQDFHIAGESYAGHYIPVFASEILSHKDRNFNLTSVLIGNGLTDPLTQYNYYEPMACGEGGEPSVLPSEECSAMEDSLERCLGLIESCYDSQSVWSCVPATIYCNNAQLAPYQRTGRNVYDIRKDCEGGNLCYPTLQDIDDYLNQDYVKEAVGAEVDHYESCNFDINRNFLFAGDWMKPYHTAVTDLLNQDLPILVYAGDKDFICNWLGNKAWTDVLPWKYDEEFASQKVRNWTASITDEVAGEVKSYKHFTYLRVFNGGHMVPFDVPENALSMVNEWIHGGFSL
KCNH2: Voltage-gated inwardly rectifying potassium channel KCNH2 (KCNH2, Homo sapiens, UniProt Q12809)
CYP2D6: Cytochrome P450 2D6 (CYP2D6, Homo sapiens, UniProt P10635)
UniProt P10635, sequence (whole entry, looked up): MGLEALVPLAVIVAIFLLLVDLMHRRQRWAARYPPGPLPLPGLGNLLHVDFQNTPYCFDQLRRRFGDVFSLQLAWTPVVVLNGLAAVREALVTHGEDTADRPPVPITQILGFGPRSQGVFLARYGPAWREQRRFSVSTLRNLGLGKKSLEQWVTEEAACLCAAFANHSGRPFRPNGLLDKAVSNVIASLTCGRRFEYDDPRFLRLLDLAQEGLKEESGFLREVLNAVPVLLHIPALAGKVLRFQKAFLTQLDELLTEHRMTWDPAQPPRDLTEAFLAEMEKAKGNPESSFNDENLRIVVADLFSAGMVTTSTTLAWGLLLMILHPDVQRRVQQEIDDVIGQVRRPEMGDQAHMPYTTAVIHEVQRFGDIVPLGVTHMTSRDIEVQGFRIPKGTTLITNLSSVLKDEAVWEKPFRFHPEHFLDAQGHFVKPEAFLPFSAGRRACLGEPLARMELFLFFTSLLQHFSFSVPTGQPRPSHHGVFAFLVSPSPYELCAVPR
UniProt Q9Y6L6, sequence (whole entry, looked up): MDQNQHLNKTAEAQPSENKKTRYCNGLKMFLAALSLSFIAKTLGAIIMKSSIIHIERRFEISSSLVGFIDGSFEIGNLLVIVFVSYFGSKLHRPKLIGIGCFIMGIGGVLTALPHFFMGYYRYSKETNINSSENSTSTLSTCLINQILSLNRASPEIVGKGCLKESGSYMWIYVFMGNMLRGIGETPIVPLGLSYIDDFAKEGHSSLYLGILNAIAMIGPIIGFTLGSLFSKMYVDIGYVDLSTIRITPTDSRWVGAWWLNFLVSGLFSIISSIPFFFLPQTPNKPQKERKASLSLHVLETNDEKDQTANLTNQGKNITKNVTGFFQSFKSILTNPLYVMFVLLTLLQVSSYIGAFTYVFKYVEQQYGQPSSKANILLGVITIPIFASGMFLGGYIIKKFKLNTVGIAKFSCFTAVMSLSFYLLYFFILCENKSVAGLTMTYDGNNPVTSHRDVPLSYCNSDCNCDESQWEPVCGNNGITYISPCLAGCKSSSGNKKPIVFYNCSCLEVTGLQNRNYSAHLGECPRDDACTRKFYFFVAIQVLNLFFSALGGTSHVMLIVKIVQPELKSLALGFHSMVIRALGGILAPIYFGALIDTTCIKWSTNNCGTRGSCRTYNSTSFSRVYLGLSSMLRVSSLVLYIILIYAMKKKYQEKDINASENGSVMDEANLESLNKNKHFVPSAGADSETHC
UniProt P08684, sequence (whole entry, looked up): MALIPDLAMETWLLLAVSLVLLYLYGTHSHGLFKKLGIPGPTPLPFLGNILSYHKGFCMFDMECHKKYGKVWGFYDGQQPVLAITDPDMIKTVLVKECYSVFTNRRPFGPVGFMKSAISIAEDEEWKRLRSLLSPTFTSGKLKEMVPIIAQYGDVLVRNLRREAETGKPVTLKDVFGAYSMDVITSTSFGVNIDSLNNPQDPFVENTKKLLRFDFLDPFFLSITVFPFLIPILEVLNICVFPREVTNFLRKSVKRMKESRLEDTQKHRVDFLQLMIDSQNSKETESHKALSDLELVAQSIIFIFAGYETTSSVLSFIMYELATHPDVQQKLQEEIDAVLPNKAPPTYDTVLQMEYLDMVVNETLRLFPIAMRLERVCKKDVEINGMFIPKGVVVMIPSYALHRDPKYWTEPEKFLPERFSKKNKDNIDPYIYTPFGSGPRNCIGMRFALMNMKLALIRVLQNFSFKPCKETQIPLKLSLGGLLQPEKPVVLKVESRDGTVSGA
UniProt P61073, sequence (whole entry, looked up): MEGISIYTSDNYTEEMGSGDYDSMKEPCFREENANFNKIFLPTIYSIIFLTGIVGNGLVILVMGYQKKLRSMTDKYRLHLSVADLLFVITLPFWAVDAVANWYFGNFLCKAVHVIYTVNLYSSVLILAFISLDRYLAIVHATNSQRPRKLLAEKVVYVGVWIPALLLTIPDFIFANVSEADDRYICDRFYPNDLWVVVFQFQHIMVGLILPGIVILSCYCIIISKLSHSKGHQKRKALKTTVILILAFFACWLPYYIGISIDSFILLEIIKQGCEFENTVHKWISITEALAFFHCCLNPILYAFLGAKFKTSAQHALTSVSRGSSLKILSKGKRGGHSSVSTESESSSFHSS
UniProt P58406, sequence (whole entry, looked up): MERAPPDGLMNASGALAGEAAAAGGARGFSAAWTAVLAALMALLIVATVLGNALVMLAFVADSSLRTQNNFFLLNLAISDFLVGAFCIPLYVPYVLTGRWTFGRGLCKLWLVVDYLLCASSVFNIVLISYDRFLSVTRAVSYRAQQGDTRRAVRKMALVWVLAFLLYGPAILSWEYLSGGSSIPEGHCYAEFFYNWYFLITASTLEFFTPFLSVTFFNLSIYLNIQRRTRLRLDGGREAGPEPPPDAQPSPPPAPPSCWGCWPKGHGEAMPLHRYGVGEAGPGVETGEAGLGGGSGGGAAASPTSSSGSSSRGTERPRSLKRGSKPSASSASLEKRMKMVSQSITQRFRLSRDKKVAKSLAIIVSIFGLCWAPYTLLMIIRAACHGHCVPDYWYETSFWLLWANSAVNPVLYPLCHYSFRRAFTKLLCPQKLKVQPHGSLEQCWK
UniProt O94956, sequence (whole entry, looked up): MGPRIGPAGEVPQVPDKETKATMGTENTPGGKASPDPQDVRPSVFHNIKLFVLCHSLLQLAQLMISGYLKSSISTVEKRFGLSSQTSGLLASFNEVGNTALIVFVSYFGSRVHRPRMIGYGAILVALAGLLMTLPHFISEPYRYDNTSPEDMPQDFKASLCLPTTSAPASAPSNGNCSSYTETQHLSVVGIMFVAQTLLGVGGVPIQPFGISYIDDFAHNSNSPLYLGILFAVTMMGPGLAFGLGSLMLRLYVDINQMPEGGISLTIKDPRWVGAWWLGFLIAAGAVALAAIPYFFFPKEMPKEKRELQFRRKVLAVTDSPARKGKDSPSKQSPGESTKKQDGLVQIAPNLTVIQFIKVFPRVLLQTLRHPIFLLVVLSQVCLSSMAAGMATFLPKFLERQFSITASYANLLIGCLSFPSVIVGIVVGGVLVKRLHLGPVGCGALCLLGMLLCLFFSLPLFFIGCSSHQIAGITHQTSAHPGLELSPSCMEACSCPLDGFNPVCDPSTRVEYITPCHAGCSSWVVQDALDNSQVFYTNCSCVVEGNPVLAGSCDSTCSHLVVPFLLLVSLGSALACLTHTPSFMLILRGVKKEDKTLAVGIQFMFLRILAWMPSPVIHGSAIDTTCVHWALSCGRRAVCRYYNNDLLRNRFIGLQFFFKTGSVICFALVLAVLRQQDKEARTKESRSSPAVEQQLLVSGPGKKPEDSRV

`Cc1cccc(C)c1OCC(=O)N[C@@H](Cc1ccccc1)[C@H](C[C@H](Cc1ccccc1)NC(=O)[C@H](C(C)C)N1CCCNC1=O)OC(=O)[C@H](CC(C)C)NC(=O)[C@@H](N)Cc1cnc[nH]1` — result for “A-B permeability ratio”: roughly 4.1 fold (ATP-binding cassette sub-family C member 2 (ABCC2, Homo sapiens, UniProt Q92887); MDCK-MRP2; concentration not given; relative to: compound over lopinavir).
`O=C(O)CCC(NP(=O)(O)OCCC[C@@H](NC(=O)CCC(NC(=O)CCCCCNC(=O)c1ccc([18F])cc1)C(=O)O)C(=O)O)C(=O)O` (some centres unmarked) has a tracer uptake of 0.06 %ID/g (PC-3 tumour model; host not given, muscle; intravenous, 2 h, tumour-bearing).
For `Cc1cn2c(C(=O)NCc3ccc(C(F)(F)F)cc3)c(C)nc2s1`, the IC50 was greater than 20 µM (CYP2B6; inhibitor).
`C[C@@H](O)[C@H](NC(=O)[C@@H]1CCCN1C(=O)CNC(=O)[C@@H]1CC(=O)NCC(=O)N[C@H]2Cc3cn(c4ccccc34)-c3cc(ccc3O)C[C@H](NC2=O)C(=O)NCC(=O)N[C@@H](CO)C(=O)N[C@@H](CCC(N)=O)C(=O)N[C@@H](Cc2c[nH]c3ccccc23)C(=O)N1)C(=O)NCC(=O)N[C@@H](CCC(N)=O)C(=O)N[C@@H](CCCNC(=N)N)C(=O)N[C@@H](CC(=O)O)C(=O)O` — result for proteolytic stability: “no effect” (Carboxypeptidase Y; HPLC-MS; 4 h, pH 6.75, 25 °C).
`C=CC(=O)Nc1cc(Nc2nccc(-c3cn(C)c4ccccc34)n2)c(OCC(F)(F)F)nc1N(C)CCN(C)C` — result for “activity vs control”: 66% (Cytochrome P450 3A4 (CYP3A4, Homo sapiens, UniProt P08684); enzyme activity, inhibitor; human, liver microsomes; 33.3 µM, midazolam probe).
For `CC(CCC(=O)NCC(=O)O)C1CCC2C3C(O)CC4CC(OC5OC(C(=O)O)C(O)C(O)C5O)CCC4(C)C3CCC12C` (centres unmarked), the uptake ratio was 86 (Solute carrier organic anion transporter family member 1B1 (SLCO1B1, Homo sapiens, UniProt Q9Y6L6); substrate; transfected HEK293 cells; 1 µM, 2 min; relative to: wild-type HEK293 cells).
The Ki of `COC(=O)C1C(OC(c2ccc(Cl)cc2)c2ccc(Cl)cc2)CC2CCC1N2C` (single isomer, unassigned) is reported as 0.335 µM (KCNH2; ligand displacement, radioligand).
With `CC(C)(O)c1ccccc1CC[C@H](c1cccc(/C=C/c2ccc3ccc(Cl)cc3n2)c1)[S+]([O-])CC1(CC(=O)O)CC1` (some centres unmarked) the inhibition was less than 0% (CYP2D6; inhibitor; human liver microsomes; 2 µM, pH 7.4, added: dextromethorphan).
With `O=C(O)CCC(NP(=O)(O)OCCC[C@@H](NC(=O)CCC(NC(=O)CCCCCNC(=O)CCCCCNC(=O)c1ccc([18F])cc1)C(=O)O)C(=O)O)C(=O)O` (some centres unmarked) the tracer uptake was 0.03 %ID/g (PC-3 tumour model; host not given, muscle; intravenous, 2 h, tumour-bearing).
For `CN(C)CC1CCCCC1(O)c1cccc(O)c1` (centres unmarked), the Papp B→A was 15.2 ×10⁻⁶ cm/s (Caco-2; 100 µM, 3 h, pH 6.8).
For `N=C(N)NCCC[C@@H]1NC(=O)[C@H](CCCCNC(=O)CC[C@H](NC(=O)CCOCCOCCOCCOCCNC(=O)CN2CCN(CC(=O)O)CCN(CC(=O)O)CCN(CC(=O)O)CC2)C(=O)NCCCC[C@@H]2NC(=O)[C@@H](Cc3ccccc3)NC(=O)[C@H](CC(=O)O)NC(=O)CNC(=O)[C@H](CCCNC(=N)N)NC2=O)NC(=O)[C@@H](Cc2ccccc2)NC(=O)[C@H](CC(=O)O)NC(=O)CNC1=O` [indium-111 labelled], “tumour to tissue ratio” read 5.43 ± 0.99 (athymic nude mice, female, U-87 MG glioma xenograft, tumour and blood; intravenous, 0.5 h; relative to: tumour over blood).
With `CN1C(=O)[C@@H](Cc2ccc(O)cc2)NC(=O)CNC(=O)[C@H](Cc2ccc3ccccc3c2)NC(=O)[C@H](CCCNC(=N)N)NC(=O)[C@H]1CCCNC(=O)c1ccc(CNC(=O)CN2CCN(CC(=O)O)CCN(CC(=O)O)CCN(CC(=O)O)CC2)cc1` [gallium-68 labelled] the SUVmean was 5.05 (C-X-C chemokine receptor type 4 (CXCR4, Homo sapiens, UniProt P61073); PET; human, nodal lesions).
`O=C1Cc2cc(CCN3CCN(C4=NS(=O)(=O)c5ccccc54)CC3)c(Cl)cc2N1` gave an inhibition of less than 0% (CYP2D6; inhibitor; human liver microsomes; 2 µM, pH 7.4, added: dextromethorphan).
For `CC(C)OC(=O)[C@H](C)NP(=S)(Oc1ccccc1)c1ccccc1` (some centres unmarked), the half-life was 0.648 h (Carboxypeptidase Y; substrate, LC-MS/MS; 5 µM, pH 7.4, 37 °C).
For `C=CC1CN2CCC1CC2C(O)c1c(-c2ccc(N=Nc3ccccc3)cc2)cnc2ccc(OC)cc12` (centres unmarked), the photoswitching efficacy was 7.9 ± 4.5% (KCNH2; potassium current, whole-cell patch clamp; 10 µM, pH 7.3, added: light 365 versus 480 nm).
`C[C@]12CC[C@H](O)CC1CCC1C2[C@H](O)C(=O)[C@]2(C)[C@@H](c3ccc(=O)oc3)CC[C@]12O` (some centres unmarked) has a CLint of 15.7 µL/min/mg (mixed recombinant human SULT isoforms; sulfation, substrate; pH 7.4).
`[64Cu+2].c1ccc(CNCc2ccc(CN3CCCNCCNCCCNCC3)cc2)nc1` gave a tissue uptake of 4.36 ± 0.72 %ID/g (CXCR4; NOD/SCID mouse, U87 and U87-stb-CXCR4 xenografts, bladder; iv, 90 min, no blocking dose, ex vivo).
`CN[C@](C)(C[18F])C(=O)O` has a tracer uptake of 2.3 %ID/g (DU-145 tumour model; host not given, heart; 2 h, tumour-bearing).
`CCCC[C@H](NC(=O)CNC(=O)CNC(=O)c1ccc(NN)nc1)C(=O)N[C@H]1CC(=O)NCCCC[C@@H](C(N)=O)NC(=O)[C@H](Cc2c[nH]c3ccccc23)NC(=O)[C@H](CCCNC(=N)N)NC(=O)[C@@H](Cc2ccccc2)NC(=O)[C@H](Cc2c[nH]cn2)NC1=O` [technetium-99m labelled] has a tissue uptake of 0.01 ± 0.01 %ID/g (C57 mouse, B16/F1 melanoma-bearing, brain; intravenous, 24 h).
With `CCCS(=O)(=O)c1ccc2[nH]c(NC(=O)OC)nc2c1` the inhibition was less than 0% (CYP2D6; inhibitor; human liver microsomes; 10 µM, pH 7.4, added: dextromethorphan).
`CC[C@@H]1CN2CCc3c([nH]c4cccc(OC)c34)[C@@H]2C[C@@H]1/C(=C\OC)C(=O)OC` gave an IC50 of greater than 100 µM (UDP-glucuronosyltransferase, rat; 4-MU glucuronidation, inhibitor; rat liver microsomes; 30 min, pH 7.4, added: 4-methylumbelliferone 100 µM).
With `CC(C)(O)c1ccccc1CC[C@H](c1cccc(/C=C/c2ccc3ccc(Cl)cc3n2)c1)S(=O)(=O)CC1(CC(=O)O)CC1` the inhibition was less than 0% (CYP2D6; inhibitor; human liver microsomes; 10 µM, pH 7.4, added: dextromethorphan).
`O=C(O)CC[C@@H](NC(=O)CNC(=O)[C@@H](Cc1ccccc1)NC(=O)[C@@H](Cc1ccccc1)NC(=O)Cc1ccc2ccccc2c1)C(=O)N[C@H](Cc1ccc(OP(=O)(O)O)cc1)C(=O)O` has a remaining compound of greater than 93% (proteinase K; proteolytic stability; 200 µM, 32 h, added: proteinase K 3 U/mL).
For `C=C(C)[C@@H]1CCC(C(=O)O)=C[C@H]1c1c(O)cc(CCCCC)cc1O`, “decrease in AUC(0-tau)” read 44% (CYP3A4/CYP2C19; human; dose not given, single dose, added: rifampicin steady state).
With `CC[C@H](C)[C@H](NC(=O)[C@H](CC(N)=O)NC(=O)[C@H](Cc1ccccc1)NC(=O)CNC(=O)[C@H](CC(C)C)NC(=O)[C@H](Cc1ccccc1)NC(=O)[C@H](Cc1ccccc1)NC(=O)Cc1ccc2ccccc2c1)C(=O)O` the remaining compound was 63.1 ± 1% (proteinase K; substrate; hydrogel diluted with water; 24 h, 37 °C, added: proteinase K 3.2 U/mL).
With `C=C(C)[C@@H]1CCC(CO)=C[C@H]1c1c(O)cc(CCCCC)cc1O` the half-life was 11.7 h (CYP3A4/CYP2C19; human; dose not given, single dose, added: rifampicin 600 mg once daily).
Under “time of peak brain uptake”, `C[C@@H]1CCCN1CCc1cc2cc(C(=O)c3ccc([18F])cc3)ccc2o1` is recorded as roughly 6.5 min (Histamine H3 receptor (Hrh3, Mus musculus, UniProt P58406); PET; mouse, whole brain; intravenous, baseline).
`Cc1ccc2c(n1)c(-c1cccc(S(C)(=O)=O)c1)c(C)n2C/C(F)=C/CN` — result for “Cmax over IC50”: greater than 10 (LOXL2 (human); healthy male subjects, plasma; oral, 100 mg single dose, unit not given; relative to: Cmax over LOXL2 IC50).
`CCCCCc1cc(O)c2c(c1)OC(C)(C)C1CCC(C(=O)OC3OC(C(=O)O)C(O)C(O)C3O)=CC21` (centres unmarked) has an IC50 shift of 1.4 ± 0.16 (CYP2B6; HEK cell microsomes; unit not given; relative to: without NADPH over with NADPH).
With `COc1cc(C(=O)NCCOCCOCCOCCNC(=O)c2ccc([18F])nc2)ccc1NC(=O)C1NC(CC(C)(C)C)C(C#N)(c2ccc(Cl)cc2F)C1c1cccc(Cl)c1F` (centres unmarked) the tracer uptake was 0.31 %ID/g (HepG2 tumour model; host not given, spleen; 4 h, tumour-bearing).
The inhibition of `CNC(=O)Oc1cc(C)c(S(C)(=O)=O)c(C)c1` is reported as less than 0% (CYP2D6; inhibitor; human liver microsomes; 2 µM, pH 7.4, added: dextromethorphan).
`CNC(=O)CC[C@@H](NC(=O)[C@@H](Cc1ccc(OP(=O)(O)O)cc1)NC(=O)[C@@H](Cc1ccccc1)NC(=O)[C@@H](Cc1ccccc1)NC(=O)Cc1ccc2ccccc2c1)C(=O)NC` has a dephosphorylated fraction of 30% (alkaline phosphatase; substrate; HS5; 200 µM, 24 h).
`CC(CCC(=O)NCC(=O)O)C1CCC2C3CCC4CC(OC5OC(C(=O)O)C(O)C(O)C5O)CCC4(C)C3CC(O)C12C` (centres unmarked) has an uptake ratio of 2 ± 0.5 (Solute carrier organic anion transporter family member 2B1 (SLCO2B1, Homo sapiens, UniProt O94956); substrate; transfected HEK293 cells; 1 µM, 2 min; relative to: wild-type HEK293 cells).
`N=C(N)NCCC[C@@H]1NC(=O)[C@H](CCCCNC(=O)CCOCCOCCOCCOCCNC(=O)CN2CCN(CC(=O)O)CCN(CC(=O)O)CCN(CC(=O)O)CC2)NC(=O)[C@@H](Cc2ccccc2)NC(=O)[C@H](CC(=O)O)NC(=O)CNC1=O` [indium-111 labelled] — result for “tumour to muscle ratio”: 7.9 ± 1.41 (female athymic nude mouse; intravenous, 3 µCi, 24 h, U-87 MG glioma xenograft; relative to: tumour over muscle).
For `CCN(CC)CCOc1ccc(-c2nnn(Cc3ccc(OC)cc3)c2N)cc1`, inhibition read “no inhibition” (CYP2B6; enzyme activity, inhibitor; concentration not given).

A few entries again:
With `C=C(C)[C@@H]1CCC(CO)=C[C@H]1c1c(O)cc(CCCCC)cc1O` the half-life was 11.7 h (CYP3A4/CYP2C19; human; dose not given, single dose, added: rifampicin 600 mg once daily).
`C[C@@H](O)[C@H](NC(=O)[C@@H]1CCCN1C(=O)CNC(=O)[C@@H]1CC(=O)NCC(=O)N[C@H]2Cc3cn(c4ccccc34)-c3cc(ccc3O)C[C@H](NC2=O)C(=O)NCC(=O)N[C@@H](CO)C(=O)N[C@@H](CCC(N)=O)C(=O)N[C@@H](Cc2c[nH]c3ccccc23)C(=O)N1)C(=O)NCC(=O)N[C@@H](CCC(N)=O)C(=O)N[C@@H](CCCNC(=N)N)C(=O)N[C@@H](CC(=O)O)C(=O)O` — result for proteolytic stability: “no effect” (Carboxypeptidase Y; HPLC-MS; 4 h, pH 6.75, 25 °C).
`C=CC(=O)Nc1cc(Nc2nccc(-c3cn(C)c4ccccc34)n2)c(OCC(F)(F)F)nc1N(C)CCN(C)C` — result for “activity vs control”: 66% (Cytochrome P450 3A4 (CYP3A4, Homo sapiens, UniProt P08684); enzyme activity, inhibitor; human, liver microsomes; 33.3 µM, midazolam probe).
